Assay results gathered from unrelated publications.
Numbered parts are unrelated; each lists some results of a single study.

Study 1
Target: RNA binding protein fox-1 homolog 2, RRM domain, GST-SBP tag (RBFOX2, Homo sapiens, UniProt O43251-10, residues 100-194)
Method: RNA Bind-n-Seq
Form: RNA
Matrix: in vitro
Concentration: 365 nM
Setting: natural RNA segment, single round, ends assumed
Relative to: no-protein control
Direction: higher = stronger binding
Measurement: RBNS enrichment (R)
Target sequence (chain): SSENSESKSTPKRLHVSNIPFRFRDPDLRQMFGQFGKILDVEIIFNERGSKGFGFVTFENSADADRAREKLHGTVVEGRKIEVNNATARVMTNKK
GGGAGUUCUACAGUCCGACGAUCCGAGUAAAGUAUUAUGUUUCUUCUUGUCACCCCAGUUCCCUUGGUGGCAACCCCAGACCCAACCCAUGCCCCUGACAGAUCUAGUUCUCUUCUCCUGUGUUCCCUUUGAGUGGAAUUCUCGGGUGCCAA: 0.559
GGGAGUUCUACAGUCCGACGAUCCAACACUGGGAGAUGUGUUUGCCAGUAAGUUGCUCAUCACAAGAGCACCAGACUUGGGGGGUGUAAUCUCCGGCAACUUGCAUGCCCUCUGAAAGAAGGGUUUUCUGUGCUGGAAUUCUCGGGUGCCAA: 0.409
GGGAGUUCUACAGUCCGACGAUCCAGCUCUGCCCCUGUGGCUUUGUAGGGUACAGCCUCCCUCCUGGCUGCUUUCACGGCUGUUGUUCAGUGCCUGCGGCUUUUCCAGGUGCACGGUGCAAGCUGUUGGUGGAUGGAAUUCUCGGGUGCCAA: 0.334
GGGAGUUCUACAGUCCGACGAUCCCUUUUUUCCAAUCAAGCUGUUUCCCCUGUUCUUACCCUAUAUAAGUUGCAAACAAUAUCGCUGAACAGUAGGGUGUGUGGUGGUUUGGGGCAGUCUGACUUCACUUUAGUGGAAUUCUCGGGUGCCAA: 0.33
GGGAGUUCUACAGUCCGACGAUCUUCUUAGUUUUCUUAACCAUGCUUUAUGUCUUGUCCAGGUAUGUCAGUCCAGUUUCCAUGACGUACCCCCUUCAGAAGUUUCUGACAUUGGUUUGAGGUUUUCUGACACUUGGAAUUCUCGGGUGCCAA: 1.12
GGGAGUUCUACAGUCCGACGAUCCUGCCUUGUGGUAAACAGCAGGUGUUGGAUCAGAACCAUCGAUUUCCUGGCUGGCACCUGGUGUUGAUUCGCGGAGUUUGGGGACAGAUUCUAUUUCCCCACACCUGUUCUGGAAUUCUCGGGUGCCAA: 0.257
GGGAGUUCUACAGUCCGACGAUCGAAAGUGCUAGAGUACAUGGUCCGUGUGUGGCCUAGCUCAUUCCAUGUCAGCAUUUGGUGUUACUCCUGUCCAAAUUCUGUUUGCAGACUUGUUUCAUGAUGAUGCUCUGUGGAAUUCUCGGGUGCCAA: 0.367
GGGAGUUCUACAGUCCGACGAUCUGUGUUCUGGCAAAGUGAUCUCAACAUGUAAGUAGUUGCAGUAAAACACAGGGGCAAAGGAAGACAGGCCUGAUGUGCCCACUCAUCUAUGGACUCAGAGCUGUGUGCUUUGGAAUUCUCGGGUGCCAA: 0.463
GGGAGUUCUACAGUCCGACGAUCCUUAAGAAGGCUUAAAAGACUGCAUGGUUUAAACCCUAGAAACAUAAAUGGAAUGUUUCUGCCUCAGUUCUUUUGACUACCUCCUAGGACAUGGAAACAAAUAUUUGGGAUGGAAUUCUCGGGUGCCAA: 0.602
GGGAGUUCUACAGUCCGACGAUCAAUCUAGGGAGGGCGGGGUGAAGUGCUGAAAGCUCACACUGAAGUGUGUUUGUAGGAGAUUCAUAAAACUAAGUUUUUAAAUGGUUCAUUCCUUUAUGGGAGCGUCUGCGUGGAAUUCUCGGGUGCCAA: 0.497
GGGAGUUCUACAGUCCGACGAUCUUGAGUAAACCUUUUUAGUUUUUACCUCAGCAGAGUGUUAGUAUGGCUGCUUUGCAGUCCCUGCUAAAGGGACCACCAGAGGGAGGGACAGUUCGUACGGCCCUCUCAGCUGGAAUUCUCGGGUGCCAA: 0.227
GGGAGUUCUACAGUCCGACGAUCGCCAGUCAGAGACAAGUCCCAAGAGAUUUCAUGGAGCCUUGGAUGACACACACGCCAUCAGCCCUUGGGUGAUGACAGUGACCAGUGUUGUAUGGGGCUUUCCCAGAAUCUGGAAUUCUCGGGUGCCAA: 0.277

Study 2
Target: Sal-like protein 4, full length isoform B (SALL4, Homo sapiens, UniProt Q9UJQ4-2, residues 1-616)
Method: universal PBM
Form: double-stranded DNA, one strand shown
Matrix: in vitro
Concentration: not given
Setting: 8-mer, flanks averaged, mean of replicates
Direction: higher = stronger binding
Measurement: E-score
Target sequence (chain): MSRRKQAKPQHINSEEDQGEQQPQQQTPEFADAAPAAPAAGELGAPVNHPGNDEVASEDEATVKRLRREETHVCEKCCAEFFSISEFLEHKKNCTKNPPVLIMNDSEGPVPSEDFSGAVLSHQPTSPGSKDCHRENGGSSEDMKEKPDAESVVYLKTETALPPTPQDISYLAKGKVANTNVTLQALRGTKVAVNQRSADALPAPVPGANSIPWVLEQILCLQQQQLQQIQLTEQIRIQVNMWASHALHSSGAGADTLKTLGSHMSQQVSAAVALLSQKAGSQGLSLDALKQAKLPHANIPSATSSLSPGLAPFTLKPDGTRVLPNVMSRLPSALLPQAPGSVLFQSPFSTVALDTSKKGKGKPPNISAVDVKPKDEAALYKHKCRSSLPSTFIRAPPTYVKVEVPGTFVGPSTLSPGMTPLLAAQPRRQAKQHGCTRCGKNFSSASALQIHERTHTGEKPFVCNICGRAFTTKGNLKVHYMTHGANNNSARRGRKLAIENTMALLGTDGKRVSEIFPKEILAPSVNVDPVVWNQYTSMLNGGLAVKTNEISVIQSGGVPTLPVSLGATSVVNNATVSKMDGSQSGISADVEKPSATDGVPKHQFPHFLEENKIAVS
GTCAGGAA: 0.0659
CGGAAACG: -0.188
CCCAGCGA: -0.261
CACAGCGC: -0.289
AAATGCTT: 0.188
ACCCTGTA: 3e-05
AACTCAAG: 0.043
CCGAATGA: 0.0731
CGAGCCTA: -0.0662
ATGCAATC: 0.0687
AGAGTTTG: 0.131
ACCCTCCC: -0.139
TATGATCA: 0.274
AGAGAGAA: -0.159
AGCCATAG: -0.0705
CGATGGAG: -0.183
ATGAGTAG: 0.093
CATTATGG: 0.116
ATCCAGCC: -0.17
GACAAGTC: -0.0756
GACCTCCC: -0.312
ACTTCCCG: -0.106
AGAGGGGA: -0.22
ACCGACGG: -0.297
AACTACTG: -0.0786

Study 3
Target: Interferon regulatory factor 3, full length, phosphomimetic (IRF3, Homo sapiens, UniProt Q14653, residues 1-427, S386D/S396D/S398D/S402D/T404D/S405D)
Method: protein-binding microarray
Form: double-stranded DNA, one strand shown
Matrix: in vitro
Concentration: 2540 nM top
Setting: 60-bp whole probe
Added: salmon DNA 0.4 mg/ml
Relative to: random background probes
Direction: higher = stronger binding
Measurement: fitted relative affinity
All sequences stand within: GCCTAGCAC … GTCTTGATTCGCTTGACGCTGCTG
Target sequence (chain): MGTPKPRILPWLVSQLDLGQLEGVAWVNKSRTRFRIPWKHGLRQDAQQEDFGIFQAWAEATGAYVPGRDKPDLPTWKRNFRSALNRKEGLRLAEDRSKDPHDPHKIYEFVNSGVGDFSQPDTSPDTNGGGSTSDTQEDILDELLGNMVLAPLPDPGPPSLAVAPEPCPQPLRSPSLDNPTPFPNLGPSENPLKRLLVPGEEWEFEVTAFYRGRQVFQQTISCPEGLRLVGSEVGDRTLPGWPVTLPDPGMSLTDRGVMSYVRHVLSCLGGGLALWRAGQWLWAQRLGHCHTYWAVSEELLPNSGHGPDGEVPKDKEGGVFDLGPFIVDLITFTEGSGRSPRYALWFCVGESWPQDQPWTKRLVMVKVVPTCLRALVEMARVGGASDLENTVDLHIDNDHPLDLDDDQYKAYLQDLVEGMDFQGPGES
GACGTACTGGACACTGGGGACGTGCTA: -0.483 z-score
TTAGGACTAGGGTTTCGGTTAGTGCTA: 2.61 z-score
TCAGCTTTAGTCATTCACACTGTGCTA: -0.196 z-score
TTAGGTTTCCTTATCCTATAGTGCTAG: 8.38 z-score
TCTCTTTTCACTTTCTTTACGTGCTAG: 3.42 z-score
TTAGGTTTCCGTCTCGGTTAGTGCTAG: 7.2 z-score
TTTACTTTCTGAATGCTCCCGTGCTAG: 5.62 z-score
TTAGGACTGGGACTGGGTTAGTGCTAG: -0.941 z-score
GACGGTCTCCTACTGCTGTCGTGCTAG: 1.41 z-score
GGCTGTTTGGTCCTGAACCTGTGCTAG: -0.0211 z-score
TCAAGTCTTCTCCTCTAACTGTGCTAG: -0.335 z-score
GACGATTCCAGATTCGAGACGTGCTAG: 1.62 z-score
AACGGACTGGGTATCGGGACGTGCTAG: -0.125 z-score
GACGATATCAGTCTCGATACGTGCTAG: 1.46 z-score
GGCGGTCTCCTTTTCCTGACGTGCTAG: 4.42 z-score
GACGATATCAGTCTCGTGACGTGCTAG: 1.16 z-score
CCATGTTGCAGACTCGAAGGGTGCTAG: 1.89 z-score
TTGGAACTGAGTCTCGATTAGTGCTAG: -0.473 z-score
TCACTTATAAATAGCACACTGTGCTAG: 0.417 z-score
TTAGATTCCGGGTTTCGATTAGTGCTA: 2.37 z-score
AATATGTTCCCTATATAAGGGTGCTAG: 2.22 z-score
GACGGTCCCCTACTGCTGACGTGCTAG: 0.488 z-score
TTAAATTTCGGGTTTCGATTAGTGCTA: 3.47 z-score
GACGGTAGCCTACTGCTGACGTGCTAG: -0.317 z-score
TCATTCATGAAATTTTAAACTGTGCTA: 0.481 z-score

Study 4
Target: Histone acetyltransferase KAT6A, both winged helices, GST fusion (KAT6A, Homo sapiens, UniProt Q92794, residues 1-181)
Method: protein binding microarray
Form: double-stranded DNA, one strand shown
Matrix: in vitro
Concentration: not given
Setting: 8-mer, flanks averaged, mean of 2 arrays, mostly near background
Relative to: not given
Direction: higher = stronger binding
Measurement: E-score
Construct (chain): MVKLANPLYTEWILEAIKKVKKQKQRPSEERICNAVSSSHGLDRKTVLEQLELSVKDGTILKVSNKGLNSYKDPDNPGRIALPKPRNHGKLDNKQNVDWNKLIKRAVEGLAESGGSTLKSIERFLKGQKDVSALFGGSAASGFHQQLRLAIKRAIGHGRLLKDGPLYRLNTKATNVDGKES
GGCGCTGA: 0.161
GCGCTACA: 0.239
CTTAATAC: -0.0869
ATGGTCTG: -0.145
AAGCCGCC: 0.227
AGTGTCAT: -0.0651
AACAAAGT: -0.0967
GAAGGTGC: -0.048
CCGAGAAC: 0.0938
CTAAGTGA: -0.00637
AGCATCCG: 0.0237
TAGGCTGA: -0.149
CGGGCCAA: 0.0671
CTAGCGTC: 0.187
ACGATCTC: 0.0122
ATTTAGTC: 0.0356
AGGCATAC: -0.106
AAGCTTGG: -0.0733
ACACCGGC: 0.256
GACCTCGA: 0.0328
AAAAAGGC: -0.0997
AATAGTGG: -0.102
CATCTTGG: -0.212
TACCTTAA: 0.00677
ATCTTTAG: 0.00754

Repeated from above (study 2):
ATGCAATC: 0.0687
AGAGTTTG: 0.131
ACCCTCCC: -0.139
TATGATCA: 0.274
AGAGAGAA: -0.159
AGCCATAG: -0.0705
CGATGGAG: -0.183
ATGAGTAG: 0.093
CATTATGG: 0.116
ATCCAGCC: -0.17
GACAAGTC: -0.0756
GACCTCCC: -0.312
ACTTCCCG: -0.106
AGAGGGGA: -0.22
ACCGACGG: -0.297
